{"data": "Measurements of several laboratories", "note": "Parts stem from different laboratories: compare values within a part only. Changes are numbered by the printed parent chain."}
{"data": "Block 1", "target": "TAR DNA-binding protein 43, full length, His tag (TARDBP, Homo sapiens, UniProt Q13148, residues 1-414)", "method": "RNA Bind-n-Seq", "molecule type": "RNA", "sample": "in vitro", "tested at": "20 nM", "setting": "6-mer, flanks averaged, single round", "with": "150 mM KCl", "relative to": "input library", "direction": "higher = stronger binding"}
{"Oligonucleotide": "UUUCCA", "6-mer enrichment (R)": 0.583}
{"Oligonucleotide": "AUAAAA", "6-mer enrichment (R)": 0.752}
{"Oligonucleotide": "UCUACU", "6-mer enrichment (R)": 0.545}
{"Oligonucleotide": "AAGGCC", "6-mer enrichment (R)": 0.806}
{"Oligonucleotide": "UGUUUG", "6-mer enrichment (R)": 1.04}
{"Oligonucleotide": "CGAGUC", "6-mer enrichment (R)": 0.777}
{"Oligonucleotide": "ACGCUC", "6-mer enrichment (R)": 0.593}
{"Oligonucleotide": "CUUUUC", "6-mer enrichment (R)": 0.615}
{"Oligonucleotide": "UGUGCA", "6-mer enrichment (R)": 0.982}
{"Oligonucleotide": "GGCCCG", "6-mer enrichment (R)": 1.32}
{"Oligonucleotide": "GCCUGU", "6-mer enrichment (R)": 0.804}
{"Oligonucleotide": "UUUUUC", "6-mer enrichment (R)": 0.728}
{"Oligonucleotide": "AUCGUU", "6-mer enrichment (R)": 0.555}
{"data": "Block 2", "target": "Prothrombin, mature alpha-thrombin (F2, Homo sapiens, UniProt P00734)", "method": "aptamer microarray, sandwich", "molecule type": "DNA with 2'F-ANA", "sample": "in vitro", "tested at": "200 nM", "setting": "whole 15-mer aptamer, many near background", "with": "Cy3 exosite-II aptamer, 400 nM", "direction": "higher = stronger binding", "oligonucleotide": "GGTTGGTGTGGTTGG"}
{"Modification": "2'F-ANA at 2 6 7 8 9 10", "mean fluorescence intensity [a.u.]": 129}
{"Modification": "2'F-ANA at 1 4 6 8 10 11 14 15", "mean fluorescence intensity [a.u.]": 47}
{"Modification": "2'F-ANA at 1 4 6 7 11 13 14", "mean fluorescence intensity [a.u.]": 77.3}
{"Modification": "2'F-ANA at 3 4 5 6 7 10 15", "mean fluorescence intensity [a.u.]": 49.6}
{"Modification": "2'F-ANA at 1 6 7 8 10 12 13", "mean fluorescence intensity [a.u.]": 63.3}
{"Modification": "2'F-ANA at 1 2 4 6 8 9 10 15", "mean fluorescence intensity [a.u.]": 53.4}
{"Modification": "2'F-ANA at 2 4 5 11 12 13 15", "mean fluorescence intensity [a.u.]": 75.3}
{"Modification": "2'F-ANA at 1 2 4 6 9 11 12 13 15", "mean fluorescence intensity [a.u.]": 133}
{"Modification": "2'F-ANA at 1 2 3 4 5 6 7 8 10 12 14", "mean fluorescence intensity [a.u.]": 52.1}
{"Modification": "2'F-ANA at 1 2 3 4 5 8 10 11 14 15", "mean fluorescence intensity [a.u.]": 53.8}
{"Modification": "2'F-ANA at 2 3 4 5 8 9 11 12 15", "mean fluorescence intensity [a.u.]": 155}
{"Modification": "2'F-ANA at 1 2 4 5 6 7 8 9 10 11 12 13 14", "mean fluorescence intensity [a.u.]": 50.9}
{"Modification": "2'F-ANA at 1 2 3 5 7 10 12 13 14 15", "mean fluorescence intensity [a.u.]": 46.1}
{"Modification": "2'F-ANA at 5 10 11 12", "mean fluorescence intensity [a.u.]": 50}
{"Modification": "2'F-ANA at 1 2 6 7 9 10 13 15", "mean fluorescence intensity [a.u.]": 51}
{"Modification": "2'F-ANA at 2 9 10 11 14 15", "mean fluorescence intensity [a.u.]": 147}
{"Modification": "2'F-ANA at 4 5 6 8 13 14 15", "mean fluorescence intensity [a.u.]": 112}
{"Modification": "2'F-ANA at 3 4 6 7 8 10 13", "mean fluorescence intensity [a.u.]": 203}
{"Modification": "2'F-ANA at 1 2 5 6 10 11 12 13 14 15", "mean fluorescence intensity [a.u.]": 46.2}
{"Modification": "2'F-ANA at 1 3 5 6 7 9 10 11 12 13", "mean fluorescence intensity [a.u.]": 76.7}
{"data": "Block 3", "target": "CCNB3, cyclin fold, Cln2 fusion (human)", "method": "yeast growth competition, sequencing", "sample": "yeast", "setting": "weak parent motif", "relative to": "not given", "direction": "higher = stronger binding", "starting sequence": "SAMHD1 docking peptide (human); ASKSRVQLFKDDP; partner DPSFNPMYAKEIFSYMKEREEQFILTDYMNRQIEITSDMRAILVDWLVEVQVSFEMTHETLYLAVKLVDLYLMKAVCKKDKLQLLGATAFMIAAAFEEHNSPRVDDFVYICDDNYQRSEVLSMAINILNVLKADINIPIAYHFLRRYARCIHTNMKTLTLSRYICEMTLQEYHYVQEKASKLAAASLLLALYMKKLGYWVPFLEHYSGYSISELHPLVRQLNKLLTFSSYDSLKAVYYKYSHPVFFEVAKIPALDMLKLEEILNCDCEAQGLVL"}
{"Change": "ASKSRAQLFKDDP [V6A]", "normalised enrichment score": 0.162}
{"Change": "ASKSRVQLFKEDP [D11E]", "normalised enrichment score": 0.14}
{"Change": "ASKSSVQLFKDDP [R5S]", "normalised enrichment score": -0.409}
{"Change": "ASKSRCQLFKDDP [V6C]", "normalised enrichment score": -0.00561}
{"Change": "ASKSREQLFKDDP [V6E]", "normalised enrichment score": -0.279}
{"Change": "ASKSRVQLFKDFP [D12F]", "normalised enrichment score": -0.222}
{"Change": "ASKSRVQLFKKDP [D11K]", "normalised enrichment score": 0.576}
{"Change": "AIKSRVQLFKDDP [S2I]", "normalised enrichment score": 0.284}
{"Change": "ASKSRVQLFGDDP [K10G]", "normalised enrichment score": 0.0804}
{"Change": "ASKSRRQLFKDDP [V6R]", "normalised enrichment score": 0.11}
{"Change": "ASKSRVQQFKDDP [L8Q]", "normalised enrichment score": -0.204}
{"Change": "ASKNRVQLFKDDP [S4N]", "normalised enrichment score": -0.131}
{"Change": "ARKSRVQLFKDDP [S2R]", "normalised enrichment score": -0.243}
{"Change": "ASKSRVQLSKDDP [F9S]", "normalised enrichment score": 0.0479}
{"data": "Block 4", "target": "Fragile X messenger ribonucleoprotein 1, C-terminal low-complexity region (Fmr1, Mus musculus, UniProt P35922)", "method": "RNA Bind-n-Seq", "molecule type": "RNA", "sample": "in vitro", "tested at": "200 nM", "setting": "whole 134-nt RNA, ends assumed", "with": "150 mM KCl", "relative to": "input library", "direction": "higher = stronger binding", "shared flanks, not repeated": "GGGAGUUCUACAGUCCGACGAUC … UGGAAUUCUCGGGUGUCAAGG"}
{"Oligonucleotide": "CUCAAGUCCUGUGCUACACAUCGUAUGUACCGAAUCGGAAGGAAGGGGAAGGGGAAAGUAUUAUGUUACGCCGUUCGGAUCUGCACUUCC", "log2 enrichment": -0.0215}
{"Oligonucleotide": "UAACUUUAGAGAAGGAUCUGAUGGAUAUGGCAGUGGACGUGGAUUUGGGGAUGGCUAUAAUGGGUAUGGAGGAGGACCUGGAGGUGGCAA", "log2 enrichment": 0.198}
{"Oligonucleotide": "UGUGCUACACAUCGUAUGUACCGAAUCGGGGAAAAAAAGGGGAAAAAAAGGGAAAAAAAGGGGAAAGUAUUAUGUUACGCCGUUCGGAUC", "log2 enrichment": -0.0827}
{"Oligonucleotide": "CCUGUGCUACACAUCGUAUGUACCGAAUCGGGAAAAAAAGGGAAAAAGGGAAAAAAAGGGAAAGUAUUAUGUUACGCCGUUCGGAUCUGC", "log2 enrichment": -0.734}
{"Oligonucleotide": "CCUCAAGUCCUGUGCUACACAUCGUAUGUACCGAAUCGGAGGUUUUUGGUGGAAAGUAUUAUGUUACGCCGUUCGGAUCUGCACUUCCAG", "log2 enrichment": 0.145}
{"data": "Block 5", "target": "Sal-like protein 4, full length isoform A (SALL4, Homo sapiens, UniProt Q9UJQ4, residues 1-1053)", "method": "universal PBM", "molecule type": "double-stranded DNA, one strand shown", "sample": "in vitro", "tested at": "600 nM", "setting": "8-mer, flanks averaged, mean of replicates", "direction": "higher = stronger binding", "UniProt Q9UJQ4, sequence (whole entry, looked up)": "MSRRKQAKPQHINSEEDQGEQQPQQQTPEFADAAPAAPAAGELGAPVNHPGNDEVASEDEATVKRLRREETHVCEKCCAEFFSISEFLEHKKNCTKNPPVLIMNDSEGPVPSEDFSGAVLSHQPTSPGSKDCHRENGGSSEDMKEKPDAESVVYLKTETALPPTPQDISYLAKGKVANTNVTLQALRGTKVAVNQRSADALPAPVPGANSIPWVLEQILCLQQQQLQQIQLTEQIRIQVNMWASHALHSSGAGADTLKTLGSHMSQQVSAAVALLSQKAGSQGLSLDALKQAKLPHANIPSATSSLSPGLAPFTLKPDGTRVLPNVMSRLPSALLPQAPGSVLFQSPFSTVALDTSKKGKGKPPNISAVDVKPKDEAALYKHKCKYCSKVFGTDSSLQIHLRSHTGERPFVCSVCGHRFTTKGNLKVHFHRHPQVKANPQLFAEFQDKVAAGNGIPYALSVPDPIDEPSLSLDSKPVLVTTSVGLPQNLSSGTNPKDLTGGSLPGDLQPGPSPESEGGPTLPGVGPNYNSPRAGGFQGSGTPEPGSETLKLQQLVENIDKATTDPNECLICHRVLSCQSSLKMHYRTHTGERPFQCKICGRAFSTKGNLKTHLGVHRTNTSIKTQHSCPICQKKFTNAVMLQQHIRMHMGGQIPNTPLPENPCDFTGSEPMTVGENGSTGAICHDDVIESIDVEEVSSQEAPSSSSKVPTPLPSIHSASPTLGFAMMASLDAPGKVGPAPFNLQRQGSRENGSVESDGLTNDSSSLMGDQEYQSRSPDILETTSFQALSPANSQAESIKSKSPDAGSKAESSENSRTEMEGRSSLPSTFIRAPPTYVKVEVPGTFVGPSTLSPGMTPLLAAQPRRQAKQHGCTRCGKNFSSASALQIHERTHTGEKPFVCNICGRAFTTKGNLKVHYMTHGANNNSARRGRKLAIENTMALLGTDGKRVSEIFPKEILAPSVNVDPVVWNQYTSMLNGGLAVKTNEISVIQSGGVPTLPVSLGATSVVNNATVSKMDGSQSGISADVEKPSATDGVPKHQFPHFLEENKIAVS"}
{"Oligonucleotide": "AATCCTGG", "E-score": -0.112}
{"Oligonucleotide": "AAACTTTG", "E-score": 0.123}
{"Oligonucleotide": "ACGACGAT", "E-score": 0.00745}
{"Oligonucleotide": "ATAGCGGG", "E-score": -0.0259}
{"Oligonucleotide": "GTGCGCAC", "E-score": -0.0838}
{"Oligonucleotide": "AAATAGCA", "E-score": 0.239}
{"Oligonucleotide": "TCACGGGA", "E-score": 0.00294}
{"Oligonucleotide": "GTGTGCCA", "E-score": -0.157}
{"Oligonucleotide": "TAACGATA", "E-score": 0.213}
{"Oligonucleotide": "CGTAACTA", "E-score": 0.0885}
{"Oligonucleotide": "GTCTGCTA", "E-score": -0.0377}
{"Oligonucleotide": "AACCAAGG", "E-score": 0.0105}
{"Oligonucleotide": "AGTTCCGG", "E-score": -0.187}
{"Oligonucleotide": "AGTATCTG", "E-score": -0.0397}
{"Oligonucleotide": "AGTGGCGG", "E-score": -0.222}
{"data": "Block 6", "target": "Histone acetyltransferase KAT6A, winged helix 1, GST fusion (KAT6A, Homo sapiens, UniProt Q92794, residues 1-85)", "method": "protein binding microarray", "molecule type": "double-stranded DNA, one strand shown", "sample": "in vitro", "tested at": "not given", "setting": "8-mer, flanks averaged, mean of 2 arrays, mostly near background", "relative to": "not given", "direction": "higher = stronger binding", "Construct (chain)": "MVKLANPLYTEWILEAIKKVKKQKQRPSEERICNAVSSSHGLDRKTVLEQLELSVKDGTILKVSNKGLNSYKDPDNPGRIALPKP"}
{"Oligonucleotide": "AACGTATT", "E-score": -0.0169}
{"Oligonucleotide": "ACATAAAA", "E-score": -0.105}
{"Oligonucleotide": "AACCAAAA", "E-score": -0.197}
{"Oligonucleotide": "ACCGGAAG", "E-score": 0.262}
{"Oligonucleotide": "CACTTCTG", "E-score": -0.0912}
{"Oligonucleotide": "CAAGGGCC", "E-score": -0.00636}
{"Oligonucleotide": "AACCTATA", "E-score": 0.0334}
{"Oligonucleotide": "GAACAAAC", "E-score": -0.129}
{"Oligonucleotide": "AAGAATAC", "E-score": -0.101}
{"Oligonucleotide": "ACGTCTGA", "E-score": -0.132}
{"Oligonucleotide": "AGTGACCG", "E-score": 0.0575}
{"Oligonucleotide": "AGAATAAC", "E-score": -0.0965}
{"Oligonucleotide": "CAATATAA", "E-score": 0.0329}
{"Oligonucleotide": "CTGTTTGC", "E-score": 0.0463}
{"Oligonucleotide": "ATCAGGTC", "E-score": -0.0185}
{"note": "For quick reference, copied from above (block 1):"}
{"Oligonucleotide": "UUUCCA", "6-mer enrichment (R)": 0.583}
{"Oligonucleotide": "CUUUUC", "6-mer enrichment (R)": 0.615}
{"Oligonucleotide": "AUCGUU", "6-mer enrichment (R)": 0.555}
{"Oligonucleotide": "UCUACU", "6-mer enrichment (R)": 0.545}
{"Oligonucleotide": "GCCUGU", "6-mer enrichment (R)": 0.804}
{"Oligonucleotide": "CGAGUC", "6-mer enrichment (R)": 0.777}
{"Oligonucleotide": "UUUUUC", "6-mer enrichment (R)": 0.728}
{"Oligonucleotide": "AAGGCC", "6-mer enrichment (R)": 0.806}
{"Oligonucleotide": "GGCCCG", "6-mer enrichment (R)": 1.32}
